Assay results collected from several papers.
Each numbered part is a random draw from the data of one study; scales do not carry over between parts. Positions count from the first letter of the parent shown.

Set 1 — target: CCNE1, cyclin fold, Cln2 fusion (human); technique: yeast growth competition, sequencing; matrix: yeast; notes: strong parent motif; relative to: not given; reading: higher = stronger binding; quantity: normalised enrichment score
Parent: RBL2 docking peptide (human); STTRRRLFVENDS; partner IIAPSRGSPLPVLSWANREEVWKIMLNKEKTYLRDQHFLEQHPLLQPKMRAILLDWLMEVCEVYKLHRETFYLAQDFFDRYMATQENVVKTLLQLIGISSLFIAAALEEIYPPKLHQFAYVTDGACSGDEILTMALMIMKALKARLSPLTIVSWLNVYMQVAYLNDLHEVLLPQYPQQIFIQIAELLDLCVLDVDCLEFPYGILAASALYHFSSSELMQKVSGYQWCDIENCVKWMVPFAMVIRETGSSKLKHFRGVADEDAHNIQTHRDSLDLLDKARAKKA
STTRRRAFVENDS [L7A]: 0.682
STTRMRLFVENDS [R5M]: 0.496
SDTRRRLFVENDS [T2D]: 4.35
STTRRRYFVENDS [L7Y]: -0.342
STTRRRLFVDNDS [E10D]: 7.25
STTRRRLFVEQDS [N11Q]: 5.73
STTRRRLFVENDM [S13M]: 5.43
STTARRLFVENDS [R4A]: 4.28

Set 2 — technique: protein binding microarray; form: double-stranded DNA, one strand shown; matrix: in vitro; concentration: not given; relative to: not given; reading: higher = stronger binding; quantity: E-score
Target: Histone acetyltransferase KAT6A, winged helix 1, GST fusion (KAT6A, Homo sapiens, UniProt Q92794, residues 1-85)
Notes: 8-mer, flanks averaged, mean of 2 arrays, mostly near background
Target sequence (chain): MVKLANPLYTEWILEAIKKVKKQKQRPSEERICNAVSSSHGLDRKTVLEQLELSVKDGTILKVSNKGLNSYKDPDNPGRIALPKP
TAAGAGGA: -0.192
ACTGTCAA: -0.0448
ATACCAAT: -0.0726
AGCCGGCC: 0.222
TGCGCGAA: 0.293
ATCGCTTA: 0.0228
CGCAACCG: 0.329
GAGAGGGC: 0.114

Set 3 — technique: EMSA with sequencing; form: double-stranded DNA, one strand shown; matrix: in vitro; concentration: 10 and 20 nM; relative to: negative control set to 0; reading: higher = stronger binding; quantity: normalised bound fraction
Target: Hepatocyte nuclear factor 3-alpha (Foxa1, Mus musculus, UniProt P35582, residues 1-468, full length assumed)
Notes: whole designed probe, mean of two concentrations, ends assumed
Construct (chain): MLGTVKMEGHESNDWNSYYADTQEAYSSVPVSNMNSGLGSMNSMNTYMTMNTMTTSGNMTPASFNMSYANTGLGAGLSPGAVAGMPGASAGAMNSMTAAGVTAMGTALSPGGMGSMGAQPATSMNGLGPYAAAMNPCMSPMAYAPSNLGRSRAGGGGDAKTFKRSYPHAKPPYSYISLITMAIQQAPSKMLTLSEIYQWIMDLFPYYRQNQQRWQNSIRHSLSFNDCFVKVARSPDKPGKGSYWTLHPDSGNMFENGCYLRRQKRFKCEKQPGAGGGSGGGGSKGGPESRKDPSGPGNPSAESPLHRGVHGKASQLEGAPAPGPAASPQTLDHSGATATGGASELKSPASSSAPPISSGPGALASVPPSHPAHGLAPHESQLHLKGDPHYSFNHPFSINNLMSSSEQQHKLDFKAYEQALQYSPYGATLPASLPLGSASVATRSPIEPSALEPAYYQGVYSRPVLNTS
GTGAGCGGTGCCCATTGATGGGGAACCAGCCTGCAGTGCGCTCAGTTAAACAATTCCAAATCAAGGAATTTTGTCTGATACAAGGAATTTGGGGTGTGTTTTCCTAACATGCACCCTGGGTAAATAGACTGCATTTCCTGACGGGGGGGGGGCCCAGCTGAAGCCAATATGCATTGCGGCCACAAGGTGGCGCGTCTGGGCCTGGCAAACCCCTGTGCTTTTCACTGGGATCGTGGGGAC: 0.263 ratio
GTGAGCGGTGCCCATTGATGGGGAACGGACACAGCCAGAGGCCATGAGTGCTCAGGAGTGCCATAAACTGTGATTTTGAGACTGATAAGGCCAGGCTAAATAGCTTGCTGCGTCTGTCTTGTTTGCCTTTTTATATTTGAGGCCTATAAAAAAATAGTGAGAAAATAGCAAGATGCCCAGGAGACAGGTGATCTGATTCAGCCAGGGGGTGGGAGGTGGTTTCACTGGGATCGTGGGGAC: 0.0926 ratio
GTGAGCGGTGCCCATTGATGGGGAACAAAAGCCAACTAAATATTTATTTCAAAAGTAGTTCATATTACATGTAAAGAATGGTTTAAAAAAAATTCTTACTTAATCCCTGGTTTATGTGAGTAAATATGAATTCTTAAGAATCCCATTTCCCAAATGGCATCATAATATTTTGTAATCATTTCTTGCCACAGGTCATATATCGTGGATAGTTCTGTATGTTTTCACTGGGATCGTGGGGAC: 0.163 ratio
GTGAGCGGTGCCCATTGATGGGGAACATGATCCAATTAAAAACAAAACAACAGCAACAACAAAAAAACAGACCTGGAAAACTTACTACACAGGCTCTGTGTAGTACGACAGAAAAGAAAAGTAATCTAGAATTTTTTAAAGGCATATAGGACTAGATATATGTAATTTGTTTTCTGAAATCCAACTCTTTCTTGTCCCTTTAGAAACATCTTCTCTATCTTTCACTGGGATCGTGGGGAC: -0.00191 ratio
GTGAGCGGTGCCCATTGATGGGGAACTTTGAAATTTAGGAAAAGTTAATATGAATGAGAGAAAAATAACCAAAAAGAAATAGCAATTATTCCTTACTAATGTTATTTTTCTGTCTGCAAAGTAAACATAGTAAAAGAAATTTTTCACTTTAAGTTATGAAAGTTGACACTATTATCTATAATTTTTACATGTGCCTCTATTATATGTCCTCTAGCCTTTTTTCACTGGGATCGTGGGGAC: 0.411 ratio
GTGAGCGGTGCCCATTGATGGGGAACATGCTTGGAAATATTTTAAACAGTGAAATCACCAACAAAAAGAGCATAAAAATGTGAAAAACATGGCTCTAAATAGCCCGCCAAAAGGGCACTAAATTACAGAGCTGAACCACAAAGGCAGAACGTCATCTTGTTCGATCTCAGCTAGGAACGTGCTCATAGGGTGACTCAGATTTTTGGCCACTGTGTGCATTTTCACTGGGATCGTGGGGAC: 0.022 ratio
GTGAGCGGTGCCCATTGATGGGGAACATAATCTGAGGTGGCGACTGGCCAGATAGCCTGCCCCTACTCACTCTGGCTATAAAATAAGCCTACAGTATCCACAAGGGGAAATACTAACAGTGTAATCTAGCACATCAAGGTGCAGTCAAAGAAGCCAGGTCCCCACTGATGAGATGAAGAAAATAACCACCTAAGTCTCAGGTCCCTGTATCTGCCTAATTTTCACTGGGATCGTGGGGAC: -0.0317 ratio
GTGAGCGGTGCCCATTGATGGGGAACTCTAAAATTCCAAAAAGTTTGCTTTTGCCCTTTTATAATACCTATCTCTAGCTTCTCTCTTTCTGGAGTAACTGCTGATTTATTTTCTGCCAAAAATTGCTTTATTTTCTTGAAAGATATAGAAATGCAATCATACAGTAAGTGCTCCTATTTTCCTGTTTTCTTTCATTCAACATAATTATTTTAAGACTTATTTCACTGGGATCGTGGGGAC: 0.0211 ratio

Further values, each from its own experiment
NS(=O)(=O)c1ccc(CCNCc2cccc(Oc3nnnn3-c3ccccc3)c2)cc1 — remaining compound (mouse, microsomes or S9; 2 µM, 0.5 h): 27%
